Results gathered from unrelated publications.
Numbers after ± are the reported error.

For `NC(=O)[C@H]1CCN(c2ncnc(N)c2F)C[C@@H]1N1CCC[C@@H](Nc2cc(Cl)cc(C(F)(F)F)c2)C1=O`, “grade ≥3 thrombocytopenia” read 0% (B-cell malignancy patients; oral, 328 mg twice daily, dose).
With `N=c1c2c(-c3ccccc3)c(-c3ccccc3)n(Cc3ccccc3)c2ncn1[C@H]1CC[C@H](O)CC1` the AUC(0-t)/AUC(0-inf) was over 95% (C57BL/6 mice, plasma; 3 mg/kg).
Under “AE leading to interruption”, `CC(C)n1c(C2CCNCC2)nc2c([N+](=O)[O-])c(Br)c(Br)cc21` is recorded as 2% (patients with AML; 125 mg).
Under “heart rate change”, `C[C@H]1COCCN1c1nc(NCc2cccnc2C(F)(F)F)c2cccnc2n1` is recorded as -4.9% (anaesthetized rat; intravenous, 3 mg/kg; baseline: control).
`COc1ccnc(C(=O)N[C@H]2COC(=O)[C@H](Cc3ccccc3)[C@@H](OC(=O)C(C)C)[C@H](C)OC2=O)c1OCOC(=O)C(C)C` gave a DT50 of 5.96 days (aerobic dark soil incubation; silt loam soil; 20 °C, modelling endpoint).
`CCCC(CCC)NC(=O)c1ccc2c(c1)OCO2` gave a PCE/NCE ratio of 0.9 (Swiss albino CD-1 mice, male, bone marrow; intraperitoneal, 175 mg/kg, 24 h).
For `COc1ncccc1-c1cnn2ccc(N3CCN(C(=O)OC(C)C)CC3)nc12`, the drug concentration was 6.2 µM (mouse nerve ligation model, brain; oral, 10 mg/kg, 30 min after last dose, repeat dosing day 4).
With `CC(C)CC(=O)OC[C@H]1O[C@@](C#N)(c2ccc3c(N)ncnn23)[C@H](O)[C@@H]1O` the fraction unbound was 0.254 (monkey plasma; 90 µM).
`C[C@H]1CN(C(=O)CC#N)[C@]12CCN(c1ncnc3[nH]ccc13)C2`: “Cmax at NOAEL” 1.4 ng/mL (minipig, female; dermal, 12 mg/kg repeated, 1 months).
Under “all-cause adverse events”, `Cc1cccc(Cn2nc(C3CC3)c3c(NC(=O)c4cnc5cc(OCCN6CCN(C)CC6)ccn45)cccc32)n1` is recorded as 0% (CTCAE v4.03, item: blood alkaline phosphatase increased; platinum-resistant ovarian cancer patients; oral, dose not given, added: pembrolizumab IV every 3 weeks).
Under “patients with nausea”, `O=C1Nc2cc3[nH]nc(-c4ccncc4)c3cc2CN1Cc1ccccc1` is recorded as 0% (CTCAE v4.03; human, relapsed or refractory advanced solid tumours; intravenous, 0.9 mg/kg, pooled schedules).
Under “enzyme contribution to clearance”, `CC1(C)C(C=C(Cl)Cl)C1C(=O)OC(C#N)c1ccc(F)c(Oc2ccccc2)c1` (centres unmarked) is recorded as 0.84% (item: CYP3A4; human, age 6 months, recombinant human CYP3A4; 0.1 µM).
For `CC(C)(O)c1cc(Nc2cc(Oc3cn(C4CC4)nc3C3CCOCC3)ccn2)ccn1`, “treatment-related adverse events” read 5% (Vomiting; patients with advanced cancer, grade 4 glioma expansion; oral, 50 mg twice daily, grade ≥3, 2 weeks on/2 weeks off schedule).
`CN1CCN(S(=O)(=O)c2cc([N+](=O)[O-])ccc2N(CCOS(C)(=O)=O)CCOS(C)(=O)=O)CC1` gave an ALT of 32 U/L (naive NOD/SCID mice, pooled blood; intraperitoneal, 12.5 mg/kg, week 4).
Under mRNA level, `CC(=O)[C@H]1[C@H](C#N)C[C@H]2[C@@H]3CC=C4C[C@@H](O)CC[C@]4(C)[C@H]3CC[C@@]21C` is recorded as “no effect” (qPCR, item: Cyp1a2; wild-type mice, liver; 10 mg/kg, 3 days; baseline: vehicle).
For `Cn1cc(-c2nc(N[C@@H]3CCCC[C@@H]3N)c(F)c3c2C(=O)NC3)cn1`, the adverse events was 60% (any bleeding; patients with relapsed or refractory AML; oral, 140 mg once daily).
`COc1ccc(-c2c(-c3ccc(C#N)c(F)c3)nc(N3CCC(N)CC3)n(C)c2=O)cc1F`: “treatment-related adverse event incidence” 0% (item: Dysgeusia; neuroendocrine neoplasm patients; oral, 60 mg, grade 3 to 4, dose expansion).
With `CC(C)C[C@H](NC(=O)[C@H](CCCCN)NC(=O)OCC1c2ccccc2-c2ccccc21)C(=O)N[C@H](C(=O)N[C@@H](Cc1ccccc1)C(=O)N[C@@H](Cc1ccccc1)C(=O)N[C@@H](CCCCN)C(=O)NCC(=O)N[C@@H](Cc1ccccc1)C(=O)N[C@@H](C)C(=O)N[C@@H](Cc1c[nH]c2ccccc12)C(=O)N[C@@H](CC(N)=O)C(=O)N[C@H](C(=O)N[C@H]1CSSC[C@@H](C(=O)N[C@@H](Cc2c[nH]cn2)C(=O)N[C@@H](CCCNC(=N)N)C(=O)N[C@@H](CCCNC(=N)N)C(=O)N[C@@H](C)C(=O)N[C@@H](CC(N)=O)C(N)=O)NC(=O)[C@H](C(C)C)NC(=O)[C@H](CCCNC(=N)N)NC(=O)[C@H](C(C)C)NC(=O)CNC(=O)[C@H](CC(N)=O)NC(=O)[C@H](CCCNC(=N)N)NC(=O)[C@H](Cc2ccc(O)cc2)NC(=O)[C@H](C(C)C)NC1=O)C(C)C)C(C)C` the MCV was 41 ± 0.77 fL (ICR mouse, blood; intramammary, 10 mg/kg, day 5, 3 d dosing).
`CCCCCCCCCCCCCCCC(=O)N[C@@H](CCC(=O)NCCCC[C@H](NC(=O)[C@H](CC(=O)O)NC(=O)[C@H](CO)NC(=O)[C@@H](NC(=O)[C@H](Cc1ccccc1)NC(=O)[C@@H](NC(=O)CNC(=O)[C@H](CCC(N)=O)NC(=O)[C@H](CO)NC(=O)[C@@H](N)Cc1c[nH]cn1)[C@@H](C)O)[C@@H](C)O)C(=O)N[C@@H](CO)C(=O)N[C@@H](CCC(=O)O)C(=O)N[C@@H](Cc1ccc(O)cc1)C(=O)N[C@@H](CC(C)C)C(=O)N[C@@H](CC(=O)O)C(=O)N[C@@H](CO)C(=O)N[C@@H](CCC(=O)O)C(=O)N[C@@H](CCCNC(=N)N)C(=O)N[C@@H](C)C(=O)N[C@@H](CCCNC(=N)N)C(=O)N[C@@H](CC(=O)O)C(=O)N[C@@H](Cc1ccccc1)C(=O)N[C@H](C(=O)N[C@@H](C)C(=O)N[C@@H](Cc1c[nH]c2ccccc12)C(=O)N[C@@H](CC(C)C)C(=O)N[C@@H](CCC(=O)O)C(=O)N[C@@H](C)C(=O)NCC(=O)NCC(=O)O)C(C)C)C(=O)O`: “treatment-related adverse events” 9.1% (item: Flatulence; humans CrCl 30 to 45 mL/min; subcutaneous, 100 µg single dose).
Under “relative organ weight”, `O=C(O)CCCOc1ccc(F)cc1-c1cc(-c2ccccc2C(F)(F)F)n(-c2ccccc2)n1` is recorded as 5.7 ± 0.9 mg% (item: thyroid; Crl:CD(SD) rats, male; iv, 25 µg/kg, 14 days).
The serum Sodium of `Clc1ccc(-c2ccccc2)cc1` is reported as 115 ± 5 mmol/L (rat Sprague-Dawley female, serum; inhalation, 35 µg/rat, 24 h).
Under “patients with SAR”, `CC(=O)c1c(C)c2cnc(Nc3ccc(C4CCN(CCS(C)(=O)=O)CC4)cn3)nc2n(C2CCCC2)c1=O` is recorded as 0% (HR+/HER2- advanced breast cancer patients; oral, dose not given).
`O=C1NC(=O)C(c2ccccc2)(c2ccccc2)N1` has a donor concentration of 149.7 ± 1.4 µM (PAMPA; pre-coated trilayer membrane; 200 µM, 5 h, pH 7.4, donor plate, PBS).
`C[C@@H](NC(=O)N1C(=O)[C@H](Cc2ccnc(N)c2)[C@H]1C(=O)O)C1CCCCC1` — result for “incidence of infusion site pain”: 0% (healthy adult Chinese volunteers; continuous intravenous infusion, 0.6 mg/kg/h, 5-day infusion, CTCAE 5.0 grading).
`O=S(=O)(Nc1ccccc1)c1ccc(NC(=S)Nc2ccccc2)cc1` — result for “blood cell fraction”: 1.78% (item: EO%; female mouse, blood; oral, 80 mg/kg daily, 14 days).
Under “mean corpuscular volume”, `COc1ccc2nc3cc(Cl)ccc3c(Nc3cc(CN4CCCC4)c(O)c(CN4CCCC4)c3)c2n1` is recorded as 44.5 fL (mouse, blood; intraperitoneal, 28 mg/kg).
`C=CCNc1c(O)cc2c(O)c1C[C@@H](C)C[C@H](OC)[C@H](O)[C@@H](C)/C=C(\C)[C@H](OC(N)=O)[C@@H](OC)/C=C\C=C(/C)C(=O)N2`: “patients with related AEs” 44% (item: headache; unresectable or metastatic GIST/STS; intravenous, dose not given, all patients).
For `CC(C)(c1ccccc1)c1cc(-n2nc3ccccc3n2)c(O)c(C(C)(C)c2ccccc2)c1`, “daily dermal exposure dose” read 1.43 ng/kg/day (human aged 11-16 years; concentration not given, sunscreen, 95th percentile).
Under “grade 3 Epistaxis”, `COc1cc2c(Oc3ccc4[nH]c(C)cc4c3F)ccnc2cc1OCC1(N)CC1` is recorded as 0% (paediatric recurrent refractory sarcoma; 12 mg).
With `CCc1ccc(CC/C=C/c2ccc3c(c2)C(=O)CC3)cc1` the TG was 0.36 mM (Sprague-Dawley rat, male; oral, 450 mg/kg/day, 14 days).
`O=C(O)CCC(CP(=O)(O)O)C(=O)O` (centres unmarked) has an AUC(0-t) of 138 ± 39.7 nmol·h/g (NSG mice, C4-2 xenograft, kidney; intravenous, 3 mg/kg, 0.25 to 6 h).
`[O-][S+]1CCc2nc(N3CCC(c4ncc(Cl)cn4)CC3)nc(NC3(CO)CCC3)c21` (centres unmarked) — result for “Nasopharyngitis adverse events”: 40% (idiopathic pulmonary fibrosis patients; 18 mg twice daily).
Under “blood urea nitrogen”, `CC(C)[C@@H]1CC[C@@H](C)C[C@@H]1O` is recorded as 23.7 ± 3.01 mg/dL (acute oral toxicity OECD; Swiss albino mice, serum; oral, 300 mg/kg).
`C[C@]1(CO)Cc2ncn(-c3ccc(C#N)c(Cl)c3)c2C(=O)O1`: “drug-related adverse event incidence” 0% (Japanese subjects; 80 mg single dose).
`CO[C@H]1C[C@@H]2CC[C@@H](C)[C@@](O)(O2)C(=O)C(=O)N2CCCC[C@H]2C(=O)O[C@H]([C@H](C)C[C@@H]2CC[C@@H](OC(=O)NCCOCCOCCOCCOCCOCCOCCOCCOCCC(=O)N3CCc4cc(Cn5nc(-c6ccc7oc(N)nc7c6)c6c(N)ncnc65)ccc4C3)[C@H](OC)C2)C[C@@H](O)[C@H](C)/C=C(\C)[C@@H](O)[C@@H](OC)C(=O)[C@H](C)C[C@H](C)/C=C/C=C/C=C/1C` gave a constipation incidence of 0% (patients with advanced solid tumours; intravenous, 10 mg weekly, any grade).
